Measured values from different studies.
A part holds a random share of what one study measured.

Series 1
Target: Histone acetyltransferase KAT6A, both winged helices, GST fusion (KAT6A, Homo sapiens, UniProt Q92794, residues 1-181)
Technique: protein binding microarray
Molecule type: double-stranded DNA, one strand shown
Matrix: in vitro
Concentration: not given
Notes: 8-mer, flanks averaged, mean of 2 arrays, mostly near background
Baseline: not given
Direction: higher = stronger binding
Endpoint: E-score
Target sequence (chain): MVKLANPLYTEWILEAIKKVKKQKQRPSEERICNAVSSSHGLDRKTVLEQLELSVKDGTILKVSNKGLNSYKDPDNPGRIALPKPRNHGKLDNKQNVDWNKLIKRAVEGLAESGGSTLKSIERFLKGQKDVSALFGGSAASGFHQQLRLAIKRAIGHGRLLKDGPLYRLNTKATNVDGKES
CCGTTGAG: 0.105
CCCGTCCA: 0.238
CGTATTAC: 0.069
GGGACACA: -0.209
TGCGCCCA: 0.0668
ATATGCCG: 0.257
ACAATCTG: -0.0958
TACTTAAA: -0.253
GTTGCTAA: -0.0115
AGAGAGTC: -0.147
ACCGCAGG: 0.135
AACTACCA: -0.199
CGACAGGA: 0.0245
CGGCCCAC: 0.109
TGTAGGAA: -0.112
ATGGGAGA: -0.2
GTAGTAGA: -0.123
CCATATCG: 0.148
CTTGGTGC: -0.103
ATGACATA: -0.156
AATGTGAC: 0.03
ACCCTTGA: 0.0279
GGACACTA: -0.133
ACGACGAC: -0.0798
CGATACGA: -0.11

Series 2
Target: Interferon regulatory factor 7, full length, phosphomimetic (IRF7, Homo sapiens, UniProt Q92985, residues 1-503, S101K/S471D/S472D/S475D/S476D/S477D/S483D/S484D/S487D)
Technique: protein-binding microarray
Molecule type: double-stranded DNA, one strand shown
Matrix: in vitro
Concentration: 250 nM
Notes: 60-bp whole probe
Added: salmon DNA 0.4 mg/ml
Baseline: random background probes
Direction: higher = stronger binding
Endpoint: log fluorescence
Shared flanks, not repeated: GCCTAGCAC … GTCTTGATTCGCTTGACGCTGCTG
Residues (chain): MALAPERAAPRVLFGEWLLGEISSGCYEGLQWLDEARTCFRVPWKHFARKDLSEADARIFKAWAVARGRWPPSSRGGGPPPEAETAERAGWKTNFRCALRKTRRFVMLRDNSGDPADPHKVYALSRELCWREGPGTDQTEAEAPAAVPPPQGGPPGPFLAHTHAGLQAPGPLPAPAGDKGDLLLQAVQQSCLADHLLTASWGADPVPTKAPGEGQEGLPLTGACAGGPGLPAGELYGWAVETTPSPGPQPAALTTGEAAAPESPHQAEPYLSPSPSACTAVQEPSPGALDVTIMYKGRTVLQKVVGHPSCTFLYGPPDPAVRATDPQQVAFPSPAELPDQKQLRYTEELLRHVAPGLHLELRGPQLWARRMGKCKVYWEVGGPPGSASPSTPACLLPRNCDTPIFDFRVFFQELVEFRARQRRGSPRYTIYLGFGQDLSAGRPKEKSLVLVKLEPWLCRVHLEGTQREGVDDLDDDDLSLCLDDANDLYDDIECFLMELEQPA
TTACGTCTCCTTTTCCTTTAGTGCTAG: 1.45 z-score
TTCTCTCTGGCCCTCCTGAGGTGCTAG: 0.015 z-score
TTAGGTATCGGTATCGCTTAGTGCTAG: 1.96 z-score
TACGAACTGAGTCTCGAGACGTGCTAG: 0.58 z-score
GGATGTTGCAAATATTGCTAGGTGCTA: -0.637 z-score
TCTGTTTCCTCTTTCTTTGCGTGCTAG: 4.16 z-score
GACGATCTCAGTTTCGATACGTGCTAG: 6.37 z-score
TTAGGTCTCGGTATCGGTCAGTGCTAG: 2.35 z-score
TTAGATTTCGGGTGTCGATTAGTGCTA: 0.576 z-score
TTACGTATCGGTCTCGGTTAGTGCTAG: 1.49 z-score
GACGGATTCGGTATCGGGACGTGCTAG: 2.27 z-score
GACGGTTTCCTTTCCCTGTCGTGCTAG: 6.02 z-score
GACCATATCAGTATCGAGACGTGCTAG: 0.636 z-score
ATAGGTTTCCTTTTCCTTTAGTGCTAG: 6.66 z-score
GACGGTTGCGGGTATCGGGACGTGCTA: -0.333 z-score
TTAAATCTCAGTTTCGATTAGTGCTAG: 8.85 z-score
TGTGGTCTGTTTCTGATATGGTGCTAG: 0.502 z-score
GACGGTCGCGGTATCGGGACGTGCTAG: 0.283 z-score
GGCGAACTGGGGACTGGAGACGTGCTA: -1.05 z-score

Series 3
Target: RNA binding protein fox-1 homolog 2, RRM domain, GST-SBP tag (RBFOX2, Homo sapiens, UniProt O43251-10, residues 100-194)
Technique: RNA Bind-n-Seq
Molecule type: RNA
Matrix: in vitro
Concentration: 365 nM
Notes: natural RNA segment, single round, ends assumed
Baseline: no-protein control
Direction: higher = stronger binding
Endpoint: RBNS enrichment (R)
Shared flanks, not repeated: GGGAGUUCUACAGUCCGACGAUC … UGGAAUUCUCGGGUGCCAA
Residues (chain): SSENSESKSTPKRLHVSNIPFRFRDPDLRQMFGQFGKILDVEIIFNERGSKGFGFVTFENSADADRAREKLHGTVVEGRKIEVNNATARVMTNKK
CCAACAAAAAAAUAAAUAAAAAUAAAAGCAAAGAAAAGGCAGUGGCGCAUAUAUUCUGUGGUCCAGGCUGUUUCUAGUCUAUUGAUGAUGGAUGCUUAUAUUAGUUUUUU: 0.391
GAUUCUGUUGCAUAGACUAGUCCUAUGGAAAAAACCAAGCUUCGUUAGAAUGUCUGCCUUACUGGUUUCCCCAGGGAAGGAAAAAUACACUUCCACCCUUUUUUCUAAGU: 0.287
CUAGAGCUAGCAGUUCCCAUUCAGGCAAACAAGGGCAGUGGUUUUGUUUGUGUUUUUGGUUGUUCCUAAAGCUUGCCCUUUGAGUAUUAUCUGGAGAACCCAAGCUGUCU: 0.404
CUUCACUCGGCAAGCAGCCCUGGUCAGAUCUGGCAGUCUUGUUGCCGAAGAUUCUGCGUGUCCUUCCACCCACCCAUGUCAACUGCCCCUUCUGAGUCUCUCCAGCGACC: 0.499
GCCCACCAAUCAACAUUCAGAUCAGCAUCAGCACCCACCCCACUUCCUGACAAAUCUGAUUUUUCUAGAAUCCUGUUCUUCCCUCACCUUAGGGAAGGAGAAUGUUUGUC: 0.633
UGUUGCAGACAUGGAUGAAAUGCUGCCCAGGUCUAAGGAGAACAAGAAGAGAGGACCUUGUUCUCUGUAGUUGGGAAUCCCAACUCUGAAUCUUUACAACAUCCAUCGUC: 1.14
UAACAAUAGCUUUAUGUCUUUGUGAAAAUGAAAUUUACUUUUAGUUUCAUAUUAUAUUUAAAGACAUGGAAUUUGUCUAGUUCAGUAUCUAUCUAUCUAUCUAUCUAUCU: 0.654
GGCUUGGCUGCAGGACAGAGACUUGACUCCAUCCCAGCUCUGGUCUUGGCUGGGAUGGCACUACCCUGUGAGCCAAACACUUUAGGUGUAAGUAGGUACACUUGUGACGU: 0.805

Series 4
Target: Prothrombin, mature alpha-thrombin (F2, Homo sapiens, UniProt P00734)
Technique: aptamer microarray, sandwich
Molecule type: DNA with 2'F-ANA
Matrix: in vitro
Concentration: 200 nM
Notes: whole 15-mer aptamer, many near background
Added: Cy3 exosite-II aptamer, 400 nM
Direction: higher = stronger binding
Endpoint: mean fluorescence intensity
Sequence: GGTTGGTGTGGTTGG
2'F-ANA at 1 7 8 9 11 12 13: 252 a.u.
2'F-ANA at 1 2 3 4 5 6 9 11 13 14 15: 51 a.u.
2'F-ANA at 1 2 3 4 9 10 14: 57.2 a.u.
2'F-ANA at 1 2 3 4 5 11 15: 54.8 a.u.
2'F-ANA at 1 4 6 7 10 12 14: 48.2 a.u.
2'F-ANA at 1 2 5 6 7 8: 62 a.u.
2'F-ANA at 2 3 4 5 7 8 10 11 12 13 15: 84.3 a.u.
2'F-ANA at 1 3 4 8 9 11 12 13: 235 a.u.
2'F-ANA at 1 3 5 12 13: 96.2 a.u.
2'F-ANA at 5 7 8 14 15: 48.1 a.u.
2'F-ANA at 1 2 8 12 13 14 15: 71.7 a.u.
2'F-ANA at 1 2 3 5 8 13 15: 56 a.u.
2'F-ANA at 3 6 8 9 11 12 14 15: 493 a.u.
2'F-ANA at 3 4 6 8 9 12 13 15: 576 a.u.
2'F-ANA at 1 4 5 6 7 11 12 13 14: 43.9 a.u.
2'F-ANA at 3 5 7 11 13: 96.5 a.u.
2'F-ANA at 1 2 4 7 8 11 14: 69.9 a.u.
2'F-ANA at 2 3 4 7 9 11 13 15: 392 a.u.

Excerpt of the above (series 2):
ATAGGTTTCCTTTTCCTTTAGTGCTAG: 6.66 z-score
GACGGTTGCGGGTATCGGGACGTGCTA: -0.333 z-score
TTAAATCTCAGTTTCGATTAGTGCTAG: 8.85 z-score
TGTGGTCTGTTTCTGATATGGTGCTAG: 0.502 z-score
GACGGTCGCGGTATCGGGACGTGCTAG: 0.283 z-score
